# Published values from different studies.
# Protocols differ between the studies behind these lines. “And” joins repeats or separate records; there may be more than shown. ± gives the spread as reported.
# Sequence of UniProt P05771 (whole entry, looked up): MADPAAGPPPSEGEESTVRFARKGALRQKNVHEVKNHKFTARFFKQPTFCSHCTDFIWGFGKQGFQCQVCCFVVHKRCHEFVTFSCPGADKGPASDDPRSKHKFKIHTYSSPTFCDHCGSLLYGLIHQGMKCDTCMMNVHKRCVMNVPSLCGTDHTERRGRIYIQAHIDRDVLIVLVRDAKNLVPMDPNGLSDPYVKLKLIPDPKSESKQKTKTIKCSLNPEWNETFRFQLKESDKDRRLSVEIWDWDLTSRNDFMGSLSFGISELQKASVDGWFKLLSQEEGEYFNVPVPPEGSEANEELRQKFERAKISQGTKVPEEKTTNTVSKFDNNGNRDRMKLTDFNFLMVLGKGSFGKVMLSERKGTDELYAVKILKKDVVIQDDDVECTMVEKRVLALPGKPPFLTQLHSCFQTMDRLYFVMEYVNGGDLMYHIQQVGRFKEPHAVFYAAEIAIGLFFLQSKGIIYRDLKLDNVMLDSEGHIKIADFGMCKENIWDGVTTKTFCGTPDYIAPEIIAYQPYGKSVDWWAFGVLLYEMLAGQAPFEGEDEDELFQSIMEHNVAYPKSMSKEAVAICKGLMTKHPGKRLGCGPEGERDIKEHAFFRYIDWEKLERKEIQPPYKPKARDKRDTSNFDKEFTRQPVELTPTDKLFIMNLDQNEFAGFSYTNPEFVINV
# Sequence of UniProt Q16539 (whole entry, looked up): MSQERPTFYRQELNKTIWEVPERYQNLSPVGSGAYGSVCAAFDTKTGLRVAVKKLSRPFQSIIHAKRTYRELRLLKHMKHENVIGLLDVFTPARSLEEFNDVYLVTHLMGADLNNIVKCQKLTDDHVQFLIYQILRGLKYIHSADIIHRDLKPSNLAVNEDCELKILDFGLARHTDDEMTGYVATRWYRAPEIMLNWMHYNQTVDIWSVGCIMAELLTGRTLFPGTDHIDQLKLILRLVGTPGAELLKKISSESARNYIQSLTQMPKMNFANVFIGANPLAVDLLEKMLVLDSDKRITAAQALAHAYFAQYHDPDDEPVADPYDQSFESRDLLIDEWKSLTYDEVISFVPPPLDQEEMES
# Sequence of UniProt O14733 (whole entry, looked up): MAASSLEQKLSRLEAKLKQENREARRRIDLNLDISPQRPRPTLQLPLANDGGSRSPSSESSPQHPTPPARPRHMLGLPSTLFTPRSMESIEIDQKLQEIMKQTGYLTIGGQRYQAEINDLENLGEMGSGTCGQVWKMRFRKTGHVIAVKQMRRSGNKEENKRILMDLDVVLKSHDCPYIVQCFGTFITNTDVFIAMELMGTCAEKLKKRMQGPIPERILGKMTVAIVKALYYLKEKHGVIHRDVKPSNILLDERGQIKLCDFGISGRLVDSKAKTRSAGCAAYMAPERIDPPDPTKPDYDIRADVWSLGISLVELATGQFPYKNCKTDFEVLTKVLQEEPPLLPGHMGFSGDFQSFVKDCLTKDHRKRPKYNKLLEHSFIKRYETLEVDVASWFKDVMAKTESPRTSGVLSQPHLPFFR
# Sequence of UniProt P41586 (whole entry, unmodified, looked up): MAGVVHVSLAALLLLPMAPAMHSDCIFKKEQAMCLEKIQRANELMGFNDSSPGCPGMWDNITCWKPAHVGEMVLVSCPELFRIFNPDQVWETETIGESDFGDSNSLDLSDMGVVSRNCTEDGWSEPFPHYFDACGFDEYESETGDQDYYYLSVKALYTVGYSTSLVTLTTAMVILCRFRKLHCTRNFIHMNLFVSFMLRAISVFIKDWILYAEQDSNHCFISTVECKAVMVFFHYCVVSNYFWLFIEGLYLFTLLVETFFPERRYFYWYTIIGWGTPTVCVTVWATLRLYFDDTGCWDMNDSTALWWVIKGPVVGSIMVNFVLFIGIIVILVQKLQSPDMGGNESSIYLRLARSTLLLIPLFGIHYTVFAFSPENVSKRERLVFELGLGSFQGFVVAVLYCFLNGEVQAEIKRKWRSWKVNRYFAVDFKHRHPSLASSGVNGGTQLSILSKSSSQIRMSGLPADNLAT
# Sequence of UniProt P21554 (whole entry, unmodified, looked up): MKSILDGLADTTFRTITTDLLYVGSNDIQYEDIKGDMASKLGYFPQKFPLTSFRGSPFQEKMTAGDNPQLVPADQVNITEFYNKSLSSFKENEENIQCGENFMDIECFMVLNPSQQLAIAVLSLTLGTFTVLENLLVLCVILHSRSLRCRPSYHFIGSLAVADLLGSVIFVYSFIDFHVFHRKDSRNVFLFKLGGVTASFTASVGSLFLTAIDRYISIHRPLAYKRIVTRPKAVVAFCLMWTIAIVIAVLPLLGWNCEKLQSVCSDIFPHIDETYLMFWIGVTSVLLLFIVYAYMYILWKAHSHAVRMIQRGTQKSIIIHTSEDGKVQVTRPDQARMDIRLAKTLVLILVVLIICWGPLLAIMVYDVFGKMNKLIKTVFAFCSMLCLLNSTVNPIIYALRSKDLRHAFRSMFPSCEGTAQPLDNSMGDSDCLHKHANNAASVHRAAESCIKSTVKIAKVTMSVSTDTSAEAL
# Sequence of UniProt O15530 (whole entry, looked up): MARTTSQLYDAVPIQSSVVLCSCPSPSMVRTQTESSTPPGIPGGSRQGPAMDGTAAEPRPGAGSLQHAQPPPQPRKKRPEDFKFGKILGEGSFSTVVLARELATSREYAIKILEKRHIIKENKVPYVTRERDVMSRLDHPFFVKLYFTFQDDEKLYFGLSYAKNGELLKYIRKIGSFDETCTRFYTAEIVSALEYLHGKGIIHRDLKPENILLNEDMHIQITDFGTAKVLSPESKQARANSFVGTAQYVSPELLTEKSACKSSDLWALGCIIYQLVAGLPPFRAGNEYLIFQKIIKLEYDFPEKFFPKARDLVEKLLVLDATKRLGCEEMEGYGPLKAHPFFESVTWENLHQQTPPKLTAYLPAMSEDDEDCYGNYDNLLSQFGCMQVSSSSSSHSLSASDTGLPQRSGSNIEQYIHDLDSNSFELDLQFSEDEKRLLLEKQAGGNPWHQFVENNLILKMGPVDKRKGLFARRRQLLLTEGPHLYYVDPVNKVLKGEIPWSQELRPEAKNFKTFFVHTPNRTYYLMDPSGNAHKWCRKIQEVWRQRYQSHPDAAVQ
SMILES,tested on,test,test system,conditions,how to read,measurement,value
CC(C)CC(C(=O)N1CC2(CC1C#N)C(=O)Nc1ccccc12)N(C)C(=O)c1cc2c(F)cc(F)c(F)c2[nH]1 (stereo not shown),human coronavirus 229E,viral replication,,0.0111 µM,,inhibition,100%
Cc1cc(C(=O)Nc2nc3cccc(C)c3n2[C@H]2CCCCN(C(=O)/C=C/CN(C)C)C2)ccn1,Trypanosoma brucei brucei,,2T1 wild type,0.8333 µM,,survival,-0.0475% and -0.0536% and -0.0469% and -0.11% and -0.06% and -0.09%
CC[C@@H]1C(=O)N(C)c2cnc(Nc3ccc(C(=O)NCCCC[C@H](NC(=O)[C@@H](NC(=O)[C@H](CO)NC(=O)[C@H](Cc4cncn4CCCCCCCCc4ccccc4)NC(=O)[C@H](CC(C)C)NC(=O)[C@@H]4CCCN4C(C)=O)[C@@H](C)CP(=O)(O)O)C(N)=O)cc3OC)nc2N1C1CCCC1,Caco-2,,,"10 µM, 2 h",reference: B-A over A-B,efflux ratio,8.94
CC[C@H](C)[C@@H]([C@@H](CC(=O)N1CCC[C@H]1[C@H](OC)[C@@H](C)C(=O)N[C@H](C)[C@@H](O)c1ccccc1)OC)N(C)C(=O)[C@@H](NC(=O)[C@H](C(C)C)N(C)C(=O)OCc1ccc(NC(=O)[C@H](CCCNC(N)=O)NC(=O)[C@@H](NC(=O)CCCCCN2C(=O)CC(SC[C@H](NC(=O)[C@H](CC(=O)O)NC(=O)[C@H](Cc3ccc(O)cc3)NC(=O)[C@H](Cc3c[nH]c4ccccc34)NC(=O)[C@@H](N)CCCNC(=N)N)C(=O)O)C2=O)C(C)C)cc1)C(C)C (stereo partly shown),,,"C57BL/6 mouse, healthy, lung","intraperitoneal, 2.5 mg/kg, 6 h",,concentration,not detected
CC(C)[C@H]1NC(=O)C[C@H]2/C=C/CCSSC[C@@H](NC1=O)C(=O)N[C@H](Cc1cccc3ccccc13)C(=O)NCC(=O)O2,"Protein kinase C beta type, isoform beta-II (PRKCB, Homo sapiens, UniProt P05771)",,,10 µM,,inhibition,-2.4%
O=C1NC2(CC2)COc2ncc(F)cc2[C@H]2COCCN2c2ccn3ncc1c3n2,,,"Sprague-Dawley rat, male, brain","oral, 2.5 mg/kg/day, 4 weeks, end of treatment",,organ-to-body weight ratio,0.494 ± 0.041%
CC[C@@H]1CN2CCc3c([nH]c4cccc(OC)c34)[C@@H]2C[C@@H]1/C(=C\OC)C(=O)OC,rabbit anti-mitragynine polyclonal IgG,"antigen binding, competitor, competitive indirect ELISA",15% methanol,"60 min antibody-standard, 30 min antibody-antigen incubation",,IC50,0.59 µg/mL and 0.58 µg/mL
Nc1ncc(-c2cc(-c3cnn(CC(F)(F)F)c3)ncc2F)nc1C(=O)NC1CNCC(F)C1 (stereo not shown),ABL1(Q252H)-phosphorylated,KINOMEscan competition binding,,1 µM,reference: DMSO control,remaining binding,82%
C[Si](C)(C)C[C@@H](CN)CC(=O)O,"sodium channel site 2, rat",binding,,75 µM,,inhibition,-19%
N[C@H](C(=O)N1CCCC1)C1CCN(c2nccc3c(-c4ncc(Cl)cc4Cl)cccc23)CC1,"MAPK14 (Homo sapiens, UniProt Q16539)","kinase activity, inhibitor",,"10 µM, with: ATP 1 mM",,inhibition,8.7%
COc1cc(C(SC(C)C)SC(C)C)ccc1OCCNS(=O)(=O)c1ccc(Br)cc1,tobacco mosaic virus,inactivation activity,in vivo plant,,,EC50,63.8 ± 1.2 µg/mL
C[n+]1ccc(Nc2ccc(O)cc2)c2ccc(Cl)cc21.[I-],Dengue virus type 2,"viral replication, Rluc reporter replicon",BHK-21 DENV2 replicon cells,"50 µM, 24 h",,inhibition,20.7 ± 2.9%
CS(C)(=O)=Nc1ccc(-c2ccc(-c3nc4cc(O[C@@H]5CO[C@H]6[C@@H]5OC[C@H]6O)[nH]c4cc3F)cc2)cc1,"MAP2K7 (Homo sapiens, UniProt O14733)",kinase activity,,10 µM,,inhibition,8%
CCSC(SCC)c1ccc(OCCNS(=O)(=O)c2ccc(C)cc2)c(Cl)c1,tobacco mosaic virus,curative activity,in vivo plant,,,EC50,> 2500 µg/mL
O=C(O)c1ccc(-c2nc(-c3ccccc3Cl)c3sccn23)cc1,,histology,mouse,"dose not given, day 11, with: 5-fluorouracil",,bone marrow cellularity,95% and 90%
CN(C)[C@H]1C[C@@]23CC[C@@]4(O2)C(=CC[C@]2(C)[C@@H](c5ccc6ccncc6c5)CC[C@H]24)C=C3[C@@H](O)[C@@H]1O,"PDPK1 (Homo sapiens, UniProt O15530)","ATP probe labelling, inhibitor, KiNativ profiling",,1 µM,,inhibition,-5.5%
CCCCSC(SCCCC)c1ccc(OCCNS(=O)(=O)c2ccc(F)cc2)c(OC)c1,Tobacco mosaic virus,curative activity,plant in vivo,,,EC50,329.5 ± 1.5 µg/mL
Cc1cc(Oc2nc(N3CC[C@@H](c4ccncc4)C3)ncc2F)[nH]n1,Mycobacterium tuberculosis,,"THP-1, H37Rv non-replicating","30 µM, day 4 plus 1",,normalised growth,84.3% and 83.8%
CN1C(=O)C(C2C3=C(CCCC3=O)Oc3ccc(Br)cc32)C(=O)N(C)C1=O (stereo not shown),3T3-L1 preadipocytes,"adipogenesis, Oil Red O staining",,"IC20, 14 days, single replicate",,lipid content,0.917 OD492
CC(C)(C)C(=O)OCOP(=O)(OCOC(=O)C(C)(C)C)C1CCCN(O)C1=O (stereo not shown),RXF 393,,,,,TGI,1740 nM
CC1(C)CC(=O)C2=C(C1)Oc1ccccc1C2C1C(=O)NC(=O)NC1=O (stereo not shown),3T3-L1 preadipocytes,"adipogenesis, Oil Red O staining",,"IC20, 14 days",,mean lipid content,0.823 OD492
CN(CCO)CCO.O=C(O)C(Cl)Cl,Eclipta prostrata,,,"15 mg/mL, 21 days, post-emergence, greenhouse",,herbicidal inhibition,-35%
COc1ccccc1-c1n[nH]c2nc(NC3CCN(C(=O)Cc4ccc(F)cc4F)CC3)ncc12,,"bead binding, competition bead pull-down, item: LINJ.36.0800",Leishmania donovani axenic amastigote extract,10 µM,reference: vehicle,relative abundance,0.87
CC[C@H](C)[C@H](NC(=O)[C@H](CO)NC(=O)[C@H](Cc1ccc(O)cc1)NC(=O)[C@H](Cc1ccc(O)cc1)NC(=O)[C@H](CC(N)=O)NC(=O)CNC(=O)[C@H](CO)NC(=O)[C@H](Cc1ccc(O)cc1)NC(=O)[C@H](CO)NC(=O)[C@H](CO)NC(=O)[C@H](CC(N)=O)NC(=O)COCCOCCNC(=O)CN1CCN(CC(=O)O)CCN(CC(=O)O)CCN(CC(=O)O)CC1)C(=O)N[C@@H](CC(C)C)C(N)=O [copper-64 labelled],,dynamic PET,"tamoxifen-induced PDAC mouse model, metastases","2.5 min, CLDN4-expressing tumours",,maximum metastasis uptake,20.2 %IA/cc
CSCC[C@H](NC(=O)[C@H](CCC(N)=O)NC(=O)[C@H](CCCCN)NC(=O)[C@H](CCCNC(=N)N)NC(=O)[C@H](Cc1ccc(O)cc1)NC(=O)[C@H](CCCNC(=N)N)NC(=O)[C@H](CO)NC(=O)[C@H](Cc1ccc(O)cc1)NC(=O)[C@H](CO)NC(=O)[C@H](CC(=O)O)NC(=O)[C@@H](NC(=O)[C@@H](N)Cc1ccccc1)[C@@H](C)O)C(=O)N[C@@H](C)C(=O)N[C@H](C(=O)N[C@@H](CCCCN)C(=O)N[C@@H](CCCCn1cc(C[C@H](NC(=O)CNC(=O)[C@H](CO)NC(=O)[C@H](CCCNC(=N)N)NC(=O)[C@H](CO)NC(=O)[C@H](CC(C)C)NC(=O)[C@H](CC(C)C)NC(=O)CNC(=O)[C@H](C)NC(=O)[C@H](CC(C)C)NC(=O)[C@H](CCCNC(=N)N)NC(=O)[C@H](Cc2c[nH]cn2)NC(=O)[C@@H](NC(=O)[C@@H](N)C(C)C)[C@@H](C)O)C(=O)N[C@H](C(=O)N[C@H](C(=O)N[C@@H](CCCCN)C(=O)N[C@@H](CC(N)=O)C(=O)N[C@@H](CC(N)=O)C(=O)N[C@@H](Cc2ccccc2)C(=O)N[C@H](C(=O)N2CCC[C@H]2C(=O)N[C@H](C(=O)N[C@@H](CC(N)=O)C(=O)N[C@H](C(=O)NCC(=O)N[C@@H](CO)C(=O)N[C@@H](CCCCN)C(=O)N[C@@H](C)C(=O)N[C@@H](Cc2ccccc2)C(N)=O)C(C)C)[C@@H](C)O)C(C)C)C(C)C)C(C)C)nn1)C(=O)N[C@@H](Cc1ccc(O)cc1)C(=O)N[C@@H](CC(C)C)C(=O)N[C@@H](C)C(=O)N[C@@H](C)C(=O)N[C@H](C(=O)N[C@@H](CC(C)C)C(=O)NCC(=O)N[C@@H](CCCCN)C(=O)N[C@@H](CCCNC(=N)N)C(=O)N[C@@H](Cc1ccc(O)cc1)C(=O)N[C@@H](CCCCN)C(=O)N[C@@H](CCC(N)=O)C(=O)N[C@@H](CCCNC(=N)N)C(=O)N[C@H](C(=O)N[C@@H](CCCCN)C(=O)N[C@@H](CC(N)=O)C(=O)N[C@@H](CCCCN)C(N)=O)C(C)C)C(C)C)C(C)C,"ADCYAP1R1 (Homo sapiens, UniProt P41586, del89-109)","cAMP accumulation, antagonist",COS-7 transfected,"from pA2, single concentration, with: PACAP-38",,Kb,3980 nM
COc1cc(C(SC(C)C)SC(C)C)ccc1OCCNS(=O)(=O)c1ccc(F)cc1,Tobacco mosaic virus,inactivation activity,plant in vivo,,,EC50,42.4 ± 0.76 µg/mL
CCCCCCCCCCCC(=O)C(C)C(=O)N1CCC[C@H]1C(=O)NC(C)(C)C(=O)NC(C)(C)C(=O)NC(C)(C)C(=O)N[C@](C)(CC)C(=O)NCCC(=O)N[C@@H](C)C(=O)N[C@](C)(CC)C(=O)N[C@@H](C)C(=O)N[C@@H](CC(C)C)C(=O)N[C@](C)(CC)C(=O)NCCC(=O)N[C@@H](C)C(=O)N[C@](C)(CC)C(=O)NCCC(=O)N[C@@H](C)C(=O)NC(C)(C)C(=O)NC(C)(C)C(=O)NC(C)(C)C(=O)N[C@@H](C)C(=O)N[C@@H](CC(=O)O)C(=O)O (stereo partly shown),"β-1,3-glucan","pull-down, LC-MS",,"1 h, pH 7.0, 30 °C, with: β-glucan 1 mg/mL",higher = less bound,unbound compound (MS peak area),712 a.u. and 927 a.u.
Cl.Oc1ccc(Nc2ccnc3cc(Cl)ccc23)cc1,West Nile virus,"viral replication, Rluc reporter replicon",Vero WNV replicon cells,"50 µM, 24 h",,inhibition,57.2 ± 5.1%
COc1ccccc1-c1n[nH]c2nc(N[C@H]3CC[C@H](NS(=O)(=O)CC(C)C)CC3)ncc12,,"bead binding, competition bead pull-down, item: LINJ.32.3110",Leishmania donovani extract,10 µM,reference: vehicle,relative abundance,0.68
O=C1NC(=O)c2c1c1cc(F)c[n+]3c1c1c2c2cc(O)ccc2[n]1[Ru-4]312([N]=C=S)[S+]3CC[S+]1CC[S+]2CC3 (stereo not shown),"Protein kinase C beta type, isoform beta-I (PRKCB, Homo sapiens, UniProt P05771)",enzyme activity,,"100 nM, human enzyme, with: 10 µM ATP",reference: untreated,remaining activity,56%
CC1CCC2C(C)C(CCCOC(=O)C(Cc3ccc(N(CCCl)CCCl)cc3)NC(=O)OC(C)(C)C)OC3OC4(C)CCC1C32OO4 (stereo not shown),Hep3B,"cell growth or viability, CCK-8",,,,IC50,640 nM
Cc1ccc2c(C(C[N+](=O)[O-])c3cccs3)c(-c3ccccc3)[nH]c2c1 (stereo not shown),"CNR1 (Homo sapiens, UniProt P21554, N393A)","receptor activation, agonist",,,,EC50,280 ± 70 nM
CCCSC(SCCC)c1ccc(OCCNS(=O)(=O)c2cccc(Br)c2)c(Cl)c1,Tobacco mosaic virus,inactivation activity,plant in vivo,,,EC50,2003.5 ± 1.7 µg/mL
N=C(N)NCCC[C@@H]1NC(=O)[C@H](CCCCNC(=O)CCC(NC(=S)Nc2ccc(CC3CN(CC(=O)O)CCN(CC(=O)O)CCN(CC(=O)O)CCN3CC(=O)O)cc2)C(=O)NCCCC[C@@H]2NC(=O)[C@@H](Cc3ccc(O)cc3)NC(=O)[C@H](CC(=O)O)NC(=O)CNC(=O)[C@H](CCCNC(=N)N)NC2=O)NC(=O)[C@@H](Cc2ccc(O)cc2)NC(=O)[C@H](CC(=O)O)NC(=O)CNC1=O (stereo partly shown) [scandium-44 labelled],,PET imaging ROI,"female athymic nude mice, U-87 MG xenograft, kidney","intravenous, 0.5 h, with: cRGD 50 mg/kg blocking",,tissue uptake,3.17 ± 0.4 %ID/g
CC(C)[C@@H]1NC(=O)[C@@H]2CCCN2C(=O)[C@@H](C(C)C)NC(=O)[C@H]2CCCN2C(=O)[C@H](C(C)C)NC(=O)[C@@H]2CCCN2C(=O)[C@@H](C(C)C)NC(=O)[C@H]2CCCN2C(=O)[C@H](C(C)C)NC(=O)[C@@H]2CCCN2C(=O)[C@@H](C(C)C)NC(=O)[C@H]2CCCN2C1=O,,,sheep lipid bilayer,"10 µM, pH 7.4, 23 °C, with: Tl cation",,transference number,0.94
CCCSC(SCCC)c1ccc(OCCNS(=O)(=O)c2ccc(C)cc2)c(OC)c1,Tobacco mosaic virus,protective activity,plant in vivo,,,EC50,654.5 ± 3.2 µg/mL
CN(C(=O)c1ccn2ncc(-c3ccc(C(N)=O)cc3)c2c1)c1ccc(C#N)cn1,Cryptosporidium parvum,,"UGA1 Nluc, IFN-gamma knockout C57BL/6 mice, faeces","oral, 10 mg/kg daily, 432 h post infection, treatment days 11-17",higher means more parasites,faecal Nluc luminescence,47 a.u. and 308 a.u. and 7250 a.u. and 129 a.u.

# Repeated from above:
SMILES,tested on,test,test system,conditions,how to read,measurement,value
CC(C)(C)C(=O)OCOP(=O)(OCOC(=O)C(C)(C)C)C1CCCN(O)C1=O (stereo not shown),RXF 393,,,,,TGI,1740 nM
CC1(C)CC(=O)C2=C(C1)Oc1ccccc1C2C1C(=O)NC(=O)NC1=O (stereo not shown),3T3-L1 preadipocytes,"adipogenesis, Oil Red O staining",,"IC20, 14 days",,mean lipid content,0.823 OD492
